{"data": "Measurements of several laboratories", "note": "Every numbered part comes from another study and shows a few of its results, in no order. Substitutions count along the parent as printed."}
{"data": "Set 1", "target": "TAR DNA-binding protein 43, full length, His tag (TARDBP, Homo sapiens, UniProt Q13148, residues 1-414)", "technique": "RNA Bind-n-Seq", "form": "RNA", "matrix": "in vitro", "tested at": "20 nM", "setting": "6-mer, flanks averaged, single round", "together with": "150 mM LiCl", "baseline": "input library", "direction": "higher = stronger binding"}
{"Strand": "AUUGUA", "6-mer enrichment (R)": 0.997}
{"Strand": "AGGUUA", "6-mer enrichment (R)": 0.946}
{"Strand": "GACAUA", "6-mer enrichment (R)": 0.853}
{"Strand": "UCCGCU", "6-mer enrichment (R)": 0.881}
{"Strand": "AGUCCA", "6-mer enrichment (R)": 0.827}
{"Strand": "CGCGCU", "6-mer enrichment (R)": 0.929}
{"Strand": "GUUACU", "6-mer enrichment (R)": 0.922}
{"Strand": "GACAGU", "6-mer enrichment (R)": 0.917}
{"data": "Set 2", "target": "Interferon regulatory factor 5, full length, phosphomimetic (IRF5, Homo sapiens, UniProt Q13568-2, residues 1-514, K96S/S451D/S453D/S456D/S462D)", "technique": "protein-binding microarray", "form": "double-stranded DNA, one strand shown", "matrix": "in vitro", "tested at": "250 nM", "setting": "60-bp whole probe", "together with": "salmon DNA 0.4 mg/ml", "baseline": "random background probes", "direction": "higher = stronger binding", "all sequences stand within": "GCCTAGCAC … GTCTTGATTCGCTTGACGCTGCTG"}
{"Strand": "TTAGGACTGGACTTTCGGTCAGTGCTA", "log fluorescence": "8.99 z-score"}
{"Strand": "TCATTTTTCTATATGCAACTGTGCTAG", "log fluorescence": "2.1 z-score"}
{"Strand": "GACGAACTGAGTATCGTGACGTGCTAG", "log fluorescence": "0.433 z-score"}
{"Strand": "ATTTTTTTCTAAGTAAACCCGTGCTAG", "log fluorescence": "1 z-score"}
{"Strand": "TACTTTCTTTTTTTCTTTTAGTGCTAG", "log fluorescence": "6.08 z-score"}
{"Strand": "TCAATCCTTCATTTGAAACTGTGCTAG", "log fluorescence": "0.441 z-score"}
{"Strand": "GACGGTATCGGGTTACGGGACGTGCTA", "log fluorescence": "2.87 z-score"}
{"Strand": "AGAGCTGTCCTTTGCAACAGGTGCTAG", "log fluorescence": "-0.536 z-score"}
{"data": "Set 3", "target": "PABPC1L2, full length, GST fusion (mouse, UniProt A0ABA7IW68)", "technique": "RNAcompete", "form": "RNA", "matrix": "in vitro", "tested at": "20 nM", "setting": "7-mer, probes averaged, single round", "baseline": "mean of 7-mers", "direction": "higher = stronger binding", "Target sequence (chain)": "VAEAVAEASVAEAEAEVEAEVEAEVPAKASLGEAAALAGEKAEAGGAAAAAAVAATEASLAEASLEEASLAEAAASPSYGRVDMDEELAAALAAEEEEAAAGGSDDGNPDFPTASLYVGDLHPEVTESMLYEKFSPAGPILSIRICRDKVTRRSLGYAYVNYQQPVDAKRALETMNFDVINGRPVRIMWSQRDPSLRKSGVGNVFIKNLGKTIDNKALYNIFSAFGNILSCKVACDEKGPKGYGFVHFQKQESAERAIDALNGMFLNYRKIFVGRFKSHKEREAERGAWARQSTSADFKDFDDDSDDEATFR"}
{"Strand": "UGAAACU", "7-mer Z-score": -0.0446}
{"Strand": "GGAACAA", "7-mer Z-score": 0.702}
{"Strand": "CCGCUUA", "7-mer Z-score": -0.257}
{"Strand": "CCCCGCC", "7-mer Z-score": -0.516}
{"Strand": "AAUUUCA", "7-mer Z-score": -0.0246}
{"Strand": "GGGAUAC", "7-mer Z-score": 0.441}
{"Strand": "CAAGUGU", "7-mer Z-score": -0.108}
{"Strand": "CGUUGUU", "7-mer Z-score": -0.376}
{"data": "Mixed results", "parent": "viral docking peptide; TSVRRALFTGGSD; partner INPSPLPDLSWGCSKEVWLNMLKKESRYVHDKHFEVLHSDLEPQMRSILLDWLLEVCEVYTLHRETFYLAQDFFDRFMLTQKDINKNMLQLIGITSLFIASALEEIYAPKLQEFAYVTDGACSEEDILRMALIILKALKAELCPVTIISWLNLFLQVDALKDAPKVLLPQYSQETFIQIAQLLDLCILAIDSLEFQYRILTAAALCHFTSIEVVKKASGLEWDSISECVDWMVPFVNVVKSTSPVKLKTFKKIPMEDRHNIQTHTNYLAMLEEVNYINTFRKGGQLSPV"}
{"Variant": "L7V", "target": "CCNE2, cyclin fold, Cln2 fusion (human)", "test": "yeast growth competition, sequencing", "test system": "yeast", "setting": "strong parent motif", "how to read": "baseline: not given, higher = stronger binding", "quantity": "normalised enrichment score", "result": 0.509}
